Values quoted from earlier work that unrelated publications cite.
Each numbered part shows a few of the values that one paper quotes. ± gives the spread as reported.
UniProt P28564, sequence (whole entry, looked up): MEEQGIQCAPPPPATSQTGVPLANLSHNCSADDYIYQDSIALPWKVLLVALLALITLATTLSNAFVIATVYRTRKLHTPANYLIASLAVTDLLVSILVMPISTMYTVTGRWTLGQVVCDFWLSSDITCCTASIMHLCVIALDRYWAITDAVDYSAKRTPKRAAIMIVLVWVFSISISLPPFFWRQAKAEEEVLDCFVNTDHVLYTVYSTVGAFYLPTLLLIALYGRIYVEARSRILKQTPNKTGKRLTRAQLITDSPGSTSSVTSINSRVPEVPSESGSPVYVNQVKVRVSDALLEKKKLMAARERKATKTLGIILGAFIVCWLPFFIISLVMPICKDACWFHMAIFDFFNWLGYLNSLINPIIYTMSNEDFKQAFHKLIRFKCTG
UniProt P41595, sequence (whole entry, looked up): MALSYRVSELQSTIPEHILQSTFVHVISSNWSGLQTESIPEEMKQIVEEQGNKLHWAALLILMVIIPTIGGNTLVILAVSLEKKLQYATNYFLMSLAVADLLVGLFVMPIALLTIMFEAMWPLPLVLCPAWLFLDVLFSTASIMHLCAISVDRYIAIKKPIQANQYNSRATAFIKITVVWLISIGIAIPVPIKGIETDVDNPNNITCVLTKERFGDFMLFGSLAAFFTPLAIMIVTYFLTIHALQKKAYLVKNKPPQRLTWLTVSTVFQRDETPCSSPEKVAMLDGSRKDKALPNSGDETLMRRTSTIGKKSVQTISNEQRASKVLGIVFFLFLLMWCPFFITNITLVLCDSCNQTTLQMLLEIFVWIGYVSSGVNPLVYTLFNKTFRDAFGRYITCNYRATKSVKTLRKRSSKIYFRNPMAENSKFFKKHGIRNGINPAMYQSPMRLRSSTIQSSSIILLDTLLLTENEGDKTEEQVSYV
UniProt P0DMS8, sequence (whole entry, looked up): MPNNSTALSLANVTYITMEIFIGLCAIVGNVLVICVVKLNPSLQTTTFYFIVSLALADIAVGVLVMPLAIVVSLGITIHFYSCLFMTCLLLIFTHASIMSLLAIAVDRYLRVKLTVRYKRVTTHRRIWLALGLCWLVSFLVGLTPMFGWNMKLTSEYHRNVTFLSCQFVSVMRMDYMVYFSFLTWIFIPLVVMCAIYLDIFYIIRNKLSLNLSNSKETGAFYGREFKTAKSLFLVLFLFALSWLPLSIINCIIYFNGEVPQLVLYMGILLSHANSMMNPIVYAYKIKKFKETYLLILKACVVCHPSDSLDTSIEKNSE
UniProt P43144, sequence (whole entry, looked up): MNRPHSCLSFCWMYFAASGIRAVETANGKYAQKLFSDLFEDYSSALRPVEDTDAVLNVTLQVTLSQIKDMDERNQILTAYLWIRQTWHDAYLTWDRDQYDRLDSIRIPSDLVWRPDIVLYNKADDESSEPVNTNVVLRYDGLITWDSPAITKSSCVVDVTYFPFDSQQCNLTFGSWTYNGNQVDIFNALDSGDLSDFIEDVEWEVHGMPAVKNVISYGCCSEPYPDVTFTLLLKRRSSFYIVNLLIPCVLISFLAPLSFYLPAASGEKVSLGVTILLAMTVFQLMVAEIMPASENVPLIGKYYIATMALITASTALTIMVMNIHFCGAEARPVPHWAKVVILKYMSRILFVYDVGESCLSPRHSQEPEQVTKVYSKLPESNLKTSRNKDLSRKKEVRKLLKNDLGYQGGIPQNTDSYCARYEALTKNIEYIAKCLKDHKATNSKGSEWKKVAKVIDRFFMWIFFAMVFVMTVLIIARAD
UniProt Q9JLB5, sequence (whole entry, looked up): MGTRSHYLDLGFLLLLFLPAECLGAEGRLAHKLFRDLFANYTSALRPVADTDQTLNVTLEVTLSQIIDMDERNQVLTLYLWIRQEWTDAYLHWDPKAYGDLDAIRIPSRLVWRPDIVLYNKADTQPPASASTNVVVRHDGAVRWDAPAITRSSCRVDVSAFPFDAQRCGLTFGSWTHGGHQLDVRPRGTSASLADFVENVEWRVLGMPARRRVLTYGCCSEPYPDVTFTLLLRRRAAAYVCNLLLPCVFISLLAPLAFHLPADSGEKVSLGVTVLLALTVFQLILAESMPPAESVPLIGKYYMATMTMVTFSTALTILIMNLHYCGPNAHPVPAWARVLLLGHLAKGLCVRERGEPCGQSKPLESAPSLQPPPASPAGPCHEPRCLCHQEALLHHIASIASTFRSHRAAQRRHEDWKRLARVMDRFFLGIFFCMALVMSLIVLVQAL

Sample 1
Target: HLA class I histocompatibility antigen, A alpha chain, allele A*26:03 (Homo sapiens, UniProt P04439)
Effect on: peptide-MHC binding
Molecule type: peptide
Molecule	IC50
LYNTVAVLY	20 µM
VSIRGSHHK	> 20 µM
YQAFRTKVH	> 20 µM
YFENSDLNL	> 20 µM
IFLIITKVF	> 20 µM
FQKDAKVLF	> 20 µM
RSLYNTIATLY	> 20 µM
AKYEICLEK	> 20 µM
EELKSLFNTV	> 20 µM
LTFLHTLYK	> 20 µM
KYFVRSTEK	> 20 µM
KRINSLIKY	> 20 µM
VLDMGDPVK	> 20 µM
ISDPLTSGL	> 20 µM
REFEAQNVP	> 20 µM
EQRLIDICV	> 20 µM
DVRPRHPGY	0.368 µM
RWRVYLRRK	> 20 µM
VLYCVHQRV	> 20 µM
WHQARFEEL	> 20 µM
WENGFKVVL	> 20 µM
RVYKNYDPR	> 20 µM
QINELHHSK	> 20 µM
INTLESMMK	> 20 µM
IISTNTLGK	> 20 µM

Further values, each from its own experiment
GGPS1: Geranylgeranyl pyrophosphate synthase (GGPS1, Homo sapiens, UniProt O95749)
UniProt O95749, sequence (whole entry, looked up): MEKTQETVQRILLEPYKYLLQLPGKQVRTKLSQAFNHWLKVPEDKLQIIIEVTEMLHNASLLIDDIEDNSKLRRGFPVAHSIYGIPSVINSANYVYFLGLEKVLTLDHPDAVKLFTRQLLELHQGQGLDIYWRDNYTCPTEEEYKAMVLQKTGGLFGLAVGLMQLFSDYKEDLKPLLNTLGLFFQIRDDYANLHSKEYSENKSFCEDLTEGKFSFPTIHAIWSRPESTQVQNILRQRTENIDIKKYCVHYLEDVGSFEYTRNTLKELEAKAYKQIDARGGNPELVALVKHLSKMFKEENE
SMILES	target or system	test	system	setting	how to read	endpoint	value
COC(=O)C1(c2ccc(C)cc2)CC1CN1CCC(O)(c2ccccc2)CC1 (stereo not drawn)	sigma-1 receptor	binding, agonist	–	–	–	Ki	0.0015 µM
CN1CCN(C(c2ccccc2)c2ccc(Cl)cc2)CC1 (stereo not drawn)	hepatitis C virus	viral replication, RT-qPCR	Huh-7.5.1	–	–	EC50	0.0331 µM
C=C(CO)C(=O)O[C@H]1CC(=C)[C@@H]2C[C@H](O)C(=C)[C@@H]2[C@H]2OC(=O)C(=C)[C@@H]21	hepatitis B virus	HBsAg secretion	HepG2.2.15	–	–	IC50	5.3 µM
CC(C)=CCCC(C)=CCn1cc(C2CC2(P(=O)(O)O)P(=O)(O)O)nn1 (stereo not drawn)	GGPS1	–	–	–	–	IC50	1.6 ± 0.7 µM
CC(C)(C)NC[C@H](O)COc1cccc2[nH]c(C#N)c(I)c12 [iodine-125 labelled]	Htr1b (Rattus norvegicus, UniProt P28564)	radioligand binding	rat cerebral cortex	together with: isoproterenol 30 µM	–	Kd	0.00016 µM
COC1=C[C@]23CCN(C)[C@H](Cc4ccc(OC)c(O)c42)C3=CC1=O	hepatitis B virus	antigen secretion, item: HBsAg	HepG2.2.15	–	–	IC50	2.19 µM
COc1ccc(-c2cnc3[nH]cc(C#Cc4cccnc4)c3c2)cc1OC	Huh-7	–	–	–	–	CC50	17 µM
COc1cc(CCNc2nc(C#Cc3ccccc3)nc3c2ncn3[C@H]2[C@H](O)[C@H](O)[C@@H]3C[C@@H]32)ccc1O	ADORA3 (Homo sapiens, UniProt P0DMS8)	–	–	–	baseline: unsubstituted N6 analogue	affinity enhancement	2 fold
CN(C)CCc1c[nH]cn1	histamine H3 receptor	–	–	–	baseline: Ki H4 over Ki H3	selectivity ratio	178 fold
c1ccc2c(c1)-c1ccc3ccc4cccc5cc-2c1c3c45	–	slow stirring	–	–	–	logKow	7.23
OCCOCCN1CCN(C(c2ccccc2)c2ccc(Cl)cc2)CC1 (stereo not drawn)	hepatitis C virus	viral replication, RT-qPCR	Huh-7.5.1	–	–	EC50	0.0503 µM
c1ccc2cc3c(cc2c1)-c1cccc2cccc-3c12	–	slow stirring	–	–	–	logKow	6.63
CC(C)C[C@H](NC(=O)[C@H](Cc1ccccc1)NC(=O)c1cnccn1)B(O)O	ELANE	enzyme activity, inhibitor	–	10 µM	–	inhibition	40%
COc1cc(CC(C)N)c(OC)cc1I (racemic) [iodine-125 labelled]	HTR2B (Homo sapiens, UniProt P41595)	radioligand binding	CHO cells	–	–	Kd	0.0002 µM
CC(C)[C@H](NC(=O)[C@H](CCCNC(=N)N)NC(=O)N[C@@H](Cc1ccccc1)C(=O)O)C(=O)N[C@H](C=O)CCCNC(=N)N	plasmin	enzyme activity, inhibitor	–	–	–	IC50, Ki or Kd	6.6 µM
CC(C)=CCC/C(C)=C/CCn1cc(CC(P(=O)(O)O)P(=O)(O)O)nn1	GGPS1	–	–	–	–	IC50	0.173 ± 0.013 µM
CC1(C)NC(=O)C(Cc2ccc(O)cc2)NC(=O)CNC(=O)C(Cc2ccc3ccccc3c2)NC(=O)C(CCCN=C(N)N)NC1=O (stereo not drawn)	human CXCR4 Y45A mutant	–	–	–	–	EC50	46 µM
NC1CCCCC1N.O=C([O-])C(=O)[O-].[Pt+2] (stereo not drawn)	–	item: total platinum	mouse	intravenous, 8.34 mg Pt/kg	–	clearance	14.4 mL/min/kg
CN(C)c1ccc(N(Cc2ccsc2)C(=O)Cn2nnc3ccccc32)cc1	main protease (Mpro)	–	–	20 µM	–	inhibition	84.4%
Cc1c(CN(C)C(=O)/C=C/c2cnc3c(c2)CCC(=O)N3)oc2ccccc12	Staphylococcus aureus FabI	inhibitor	–	–	–	Ki	0.0128 ± 0.0005 µM
Cc1ccncc1NC(=O)Cc1cccc(I)c1	main protease (Mpro)	–	–	20 µM	–	inhibition	17.4%
O=c1c(O)c(-c2ccc(O)cc2)oc2c(O)c(O)cc(O)c12	3CL protease	enzyme activity, inhibitor	–	–	–	IC50	33 µM
CN1CCc2[nH]c3ccccc3c2CC1	Nicotinic acetylcholine receptor alpha9/alpha10 (Rattus norvegicus, UniProt P43144+Q9JLB5)	inhibitor	–	together with: 100 µM acetylcholine	–	IC50	5.1 ± 0.3 µM
N.N.[Cl][Pt][Cl]	–	–	cervical cancer patients	dose not given, randomized phase II, without triapine, together with: radiation	–	complete metabolic response	69%
CC(C)C[C@@H]1NC(=O)[C@H](Cc2cn(Cc3ccc(Br)cc3)c3ccccc23)N(C)C(=O)[C@H](CC(C)C)NC(=O)[C@H](CC(C)C)N(C)C(=O)[C@H](CC(C)C)NC(=O)[C@@H](CCC#N)OC(=O)[C@H](C)N(C)C1=O	Sec61	inhibitor	–	–	–	IC50	0.02 to 0.5 µM
N=c1c2c(-c3ccccc3)c(-c3ccccc3)n(Cc3ccccc3)c2ncn1[C@H]1CC[C@H](O)CC1	–	–	mouse	intravenous, 3 mg/kg	–	plasma clearance	47.9 mL/min/kg

A few entries again (sample 1):
Molecule	IC50
VLYCVHQRV	> 20 µM
YFENSDLNL	> 20 µM
REFEAQNVP	> 20 µM
LTFLHTLYK	> 20 µM
FQKDAKVLF	> 20 µM
IFLIITKVF	> 20 µM
DVRPRHPGY	0.368 µM
EELKSLFNTV	> 20 µM
